Published values from different studies.
Each line is one published result; not all experiments were run side by side. Numbers after ± are the reported error.
UniProt Q9H2X6, sequence (whole entry, looked up): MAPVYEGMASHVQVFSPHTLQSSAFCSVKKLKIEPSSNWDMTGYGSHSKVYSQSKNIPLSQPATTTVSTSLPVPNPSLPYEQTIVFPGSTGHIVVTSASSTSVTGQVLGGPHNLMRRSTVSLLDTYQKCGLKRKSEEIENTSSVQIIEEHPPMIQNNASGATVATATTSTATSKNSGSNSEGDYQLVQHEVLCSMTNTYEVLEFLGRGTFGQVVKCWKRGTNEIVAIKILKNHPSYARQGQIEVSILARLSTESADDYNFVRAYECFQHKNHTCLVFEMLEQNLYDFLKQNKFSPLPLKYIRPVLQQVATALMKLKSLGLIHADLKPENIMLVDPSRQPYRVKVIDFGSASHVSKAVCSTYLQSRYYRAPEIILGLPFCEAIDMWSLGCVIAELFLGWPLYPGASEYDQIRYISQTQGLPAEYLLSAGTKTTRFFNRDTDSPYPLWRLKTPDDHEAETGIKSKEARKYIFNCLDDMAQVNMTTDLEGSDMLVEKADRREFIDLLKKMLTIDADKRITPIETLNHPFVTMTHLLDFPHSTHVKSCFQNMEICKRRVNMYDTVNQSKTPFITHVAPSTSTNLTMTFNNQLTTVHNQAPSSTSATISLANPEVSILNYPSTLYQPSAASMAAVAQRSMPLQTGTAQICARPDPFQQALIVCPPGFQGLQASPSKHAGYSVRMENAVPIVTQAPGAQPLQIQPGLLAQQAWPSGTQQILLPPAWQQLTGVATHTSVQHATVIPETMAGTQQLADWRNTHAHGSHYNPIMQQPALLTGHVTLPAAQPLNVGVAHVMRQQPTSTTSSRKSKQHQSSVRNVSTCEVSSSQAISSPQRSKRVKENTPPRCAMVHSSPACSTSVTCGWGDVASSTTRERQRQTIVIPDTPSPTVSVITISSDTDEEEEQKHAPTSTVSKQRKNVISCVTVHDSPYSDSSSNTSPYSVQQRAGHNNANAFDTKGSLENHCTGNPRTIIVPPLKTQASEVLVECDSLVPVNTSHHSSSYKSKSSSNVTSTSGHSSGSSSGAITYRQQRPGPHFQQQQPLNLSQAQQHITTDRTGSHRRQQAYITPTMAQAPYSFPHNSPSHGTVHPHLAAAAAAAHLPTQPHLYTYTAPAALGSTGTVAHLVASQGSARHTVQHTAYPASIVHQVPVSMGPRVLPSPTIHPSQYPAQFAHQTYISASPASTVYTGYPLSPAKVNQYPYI

SMILES	target or system	assay	system	conditions	scale	quantity	value
C[C@]12CC[C@@H]3c4ccc(O)cc4CC[C@H]3[C@@H]1CCC2=O	–	ultrafiltration	cow milk whey	20 nM nominal in whole milk	–	dose fraction in permeate	14.2%
NCCCC[C@@H]1NC(=O)[C@@H](Cc2c[nH]c3ccccc23)NC(=O)[C@H](c2ccccc2)NC(=O)[C@@H]2C[C@@H](OC(=O)NCCN)CN2C(=O)[C@H](Cc2ccccc2)NC(=O)[C@H](Cc2ccc(OCc3ccccc3)cc2)NC1=O	–	–	healthy human volunteers	1950 µg twice daily	–	subjects with adverse event Flatulence	8%
Cc1cc(C)c(CNC(=O)c2cc(Cl)c3c(c2C)O[C@@](C)([C@H]2CC[C@H](N(C)C)CC2)O3)c(=O)[nH]1	–	–	relapsed/refractory NHL patients	dose not given, trial, safety set, all TEAEs grade 5	–	incidence of lactic acidosis	0%
CC(C)[C@@H]1NC(=O)CNC(=O)[C@H](CC(N)=O)NC(=O)[C@H](CCCNC(=N)N)NC(=O)[C@H](Cc2ccc(O)cc2)NC(=O)[C@H](C(C)C)NC(=O)[C@@H](NC(=O)[C@@H](NC(=O)[C@H](CC(N)=O)NC(=O)[C@H](Cc2c[nH]c3ccccc23)NC(=O)[C@H](C)NC(=O)[C@H](Cc2ccccc2)NC(=O)CN)C(C)C)CSSC[C@@H](C(=O)N[C@@H](Cc2cnc[nH]2)C(=O)N[C@@H](CCCNC(=N)N)C(=O)N[C@@H](CCCNC(=N)N)C(=O)N[C@@H](C)C(=O)N[C@@H](CC(N)=O)C(N)=O)NC(=O)[C@H](C(C)C)NC(=O)[C@H](CCCNC(=N)N)NC1=O	–	–	ICR mice, serum	intraperitoneal, 10 mg/kg, day 5	–	phosphorus	3.3 ± 0.06 mmol/L
CC(C)(c1ccccc1)c1cc(-n2nc3ccccc3n2)c(O)c(C(C)(C)c2ccccc2)c1	–	–	human aged 21-60 years	concentration not given, foundation, 95th percentile	–	daily dermal exposure dose	1.97 ng/kg/day
CN1CC[C@@H](c2c(O)cc(O)c3c(=O)cc(-c4ccc(C(F)(F)F)cc4Cl)oc23)[C@@H]1CO	–	refers to: Dizziness	B-cell malignancies or AML	oral, 100 mg, continuous dosing	–	patients with adverse event	12.5%
CNC(=O)c1c(N(C)N=O)ncn1C	Salmonella typhimurium	mutagenicity, Ames plate incorporation	TA98	5000 µg/plate, without S9, methanol	–	revertant colonies per plate	33.3 ± 15
CC[C@H](C)[C@H](NC(=O)[C@H](Cc1ccccc1)NC(=O)[C@H](CCC(=O)O)NC(=O)[C@H](CCCNC(=N)N)NC(=O)[C@H](C)NC(=O)[C@H](C)NC(=O)[C@H](CCC(N)=O)NC(=O)[C@H](CCC(=O)O)NC(=O)[C@H](CCC(=O)O)NC(=O)[C@H](CC(C)C)NC(=O)[C@H](Cc1ccc(O)cc1)NC(=O)[C@H](CO)NC(=O)[C@H](CO)NC(=O)[C@@H](NC(=O)[C@H](CC(=O)O)NC(=O)[C@H](CO)NC(=O)[C@@H](NC(=O)[C@H](Cc1ccccc1)NC(=O)[C@@H](NC(=O)CNC(=O)[C@H](CCC(=O)O)NC(=O)[C@H](C)NC(=O)CCc1c[nH]cn1)[C@@H](C)O)[C@@H](C)O)C(C)C)C(=O)N[C@@H](C)C(=O)N[C@@H](Cc1c[nH]c2ccccc12)C(=O)N[C@@H](CC(C)C)C(=O)N[C@H](C(=O)N[C@@H](CCCNC(=N)N)C(=O)NCC(=O)N[C@@H](CCCNC(=N)N)C(=O)N[C@@H](CCCCNC(=O)COCCOCCNC(=O)COCCOCCNC(=O)CC[C@H](NC(=O)CCCCCCCCCCCCCCCCC(=O)O)C(=O)O)C(=O)NCC(=O)NCC(=O)N[C@@H](CO)C(=O)N[C@@H](CCCCNc1c(NCCCCCN(O)C(=O)CCC(=O)NCCCCCN(O)C(=O)CCC(=O)NCCCCCN(O)C(C)=O)c(=O)c1=O)C(=O)O)C(C)C [zirconium-89 labelled]	–	ex vivo gamma counting	rat, duodenum content	subcutaneous, 3 nmol/kg, 168 h, together with: [89Zr]-labelled peptide	–	tissue uptake	0.02 %ID/g
[O-][S+]1CCc2nc(N3CCC(c4ncc(Cl)cn4)CC3)nc(NC3(CO)CCC3)c21 (centres unmarked)	–	refers to: gastrointestinal disorders	healthy male humans	36 mg single dose	–	adverse event incidence	33.3%
COc1cc2c(Oc3ccc4[nH]c(C)cc4c3F)ccnc2cc1OCC1(N)CC1	–	–	paediatric refractory sarcoma patients	10 mg	–	Fever incidence	25%
COc1ccc(N2C(=O)N(c3c(C)cccc3Cl)Cc3cnc(Nc4ccc(C5CCN(C)CC5)cc4OC)nc32)nc1	HIPK2 (Homo sapiens, UniProt Q9H2X6)	kinase activity	–	0.5 µM	–	inhibition	4%
CCCC1CCC(C2CCC(c3ccc(F)c(F)c3)CC2)CC1 (centres unmarked)	–	–	rat, fetus	1000 ng/mL in perfusate, middle dose, mixture of 21 LCMs	–	median fetal accumulation	0.074 ng/g
COc1cc(Nc2ncc(F)c(Nc3ccc4c(n3)NC(=O)C(C)(C)O4)n2)cc(OC)c1OC	neutral sphingomyelinase	enzyme activity, inhibitor	–	–	–	IC50	> 10 µM
CO[C@H]1C[C@@H]2CC[C@@H](C)[C@@](O)(O2)C(=O)C(=O)N2CCCC[C@H]2C(=O)O[C@H]([C@H](C)C[C@@H]2CC[C@@H](OC(=O)NCCOCCOCCOCCOCCOCCOCCOCCOCCC(=O)N3CCc4cc(Cn5nc(-c6ccc7oc(N)nc7c6)c6c(N)ncnc65)ccc4C3)[C@H](OC)C2)C[C@@H](O)[C@H](C)/C=C(\C)[C@@H](O)[C@@H](OC)C(=O)[C@H](C)C[C@H](C)/C=C/C=C/C=C/1C	–	phase 1 dose escalation, refers to: mucositis	advanced solid tumour patients	intravenous, 8 mg weekly, grade ≥3	–	TRAE incidence	0%
CC(C)C[C@H](NC(=O)[C@H](Cc1ccccc1)NC(=O)[C@H](Cc1ccccc1)NC(=O)Cc1ccc(-c2ccccc2)cc1)C(=O)N[C@@H](CCCCN)C(=O)N[C@@H](CCCNC(=N)N)C(=O)N[C@H](C(=O)N[C@@H](Cc1c[nH]c2ccccc12)C(=O)N[C@@H](CCCCN)C(=O)N[C@@H](CCCNC(=N)N)C(=O)O)C(C)C	–	–	rat liver microsomes	–	–	intrinsic clearance	29.2 L/h/kg
O=C(c1ccc(F)cc1)C(F)(F)CCN1CCC(O)(c2ccc(Cl)cc2)CC1	–	–	mouse liver microsomes	–	–	ketone metabolite formation	not detected
CC(C)n1c(C2CCNCC2)nc2c([N+](=O)[O-])c(Br)c(Br)cc21	–	–	patients with AML	125 mg, pseudomonal pneumonia	–	AE leading to discontinuation	2%
CCCCCCCCCCCCCCCC(=O)N[C@@H](CCC(=O)NCCCC[C@H](NC(=O)[C@H](CC(=O)O)NC(=O)[C@H](CO)NC(=O)[C@@H](NC(=O)[C@H](Cc1ccccc1)NC(=O)[C@@H](NC(=O)CNC(=O)[C@H](CCC(N)=O)NC(=O)[C@H](CO)NC(=O)[C@@H](N)Cc1c[nH]cn1)[C@@H](C)O)[C@@H](C)O)C(=O)N[C@@H](CO)C(=O)N[C@@H](CCC(=O)O)C(=O)N[C@@H](Cc1ccc(O)cc1)C(=O)N[C@@H](CC(C)C)C(=O)N[C@@H](CC(=O)O)C(=O)N[C@@H](CO)C(=O)N[C@@H](CCC(=O)O)C(=O)N[C@@H](CCCNC(=N)N)C(=O)N[C@@H](C)C(=O)N[C@@H](CCCNC(=N)N)C(=O)N[C@@H](CC(=O)O)C(=O)N[C@@H](Cc1ccccc1)C(=O)N[C@H](C(=O)N[C@@H](C)C(=O)N[C@@H](Cc1c[nH]c2ccccc12)C(=O)N[C@@H](CC(C)C)C(=O)N[C@@H](CCC(=O)O)C(=O)N[C@@H](C)C(=O)NCC(=O)NCC(=O)O)C(C)C)C(=O)O	–	refers to: Diarrhoea	humans CrCl below 20 mL/min	subcutaneous, 100 µg single dose	–	treatment-related adverse events	0%
O=C(Nc1ccccc1)C1CCN(C(=O)Oc2cccnc2)CC1	–	adverse event reporting	healthy women	oral, 60 mg, 7 days	–	subjects with affect lability	7.1%

SMILES	target or system	assay	system	conditions	scale	quantity	value
O=S(=O)(Nc1ccc2c(c1)B(O)OC2)c1ccc(Cl)cc1	–	PAMPA	–	200 µM, 5 h, pH 7.4	–	membrane retention	7.3%
COc1cc(CCC[P+](c2ccccc2)(c2ccccc2)c2ccccc2)c(OC)c2c1OCO2.[I-]	DU-145	SRB	–	–	–	TGI	-4.13 log M
Clc1ccc(-c2ccccc2)cc1	–	–	rat Sprague-Dawley female, serum	inhalation, 23 µg/rat, 4 h	–	serum CO2	24 ± 2 mmol/L
CC(=O)c1c(C)c2cnc(Nc3ccc(C4CCN(CCS(C)(=O)=O)CC4)cn3)nc2n(C2CCCC2)c1=O	–	–	human patients, plasma	oral, 100 mg twice daily, day 1 single dose, together with: fulvestrant	–	AUC(0-t)	0.872 µg·h/mL
O=c1ccn([C@@H]2O[C@H](CO)[C@@H](O)[C@H]2O)c(=S)[nH]1	–	–	monkey cells	–	–	CC50	283 µM
C[C@]1(CO)Cc2ncn(-c3ccc(C#N)c(Cl)c3)c2C(=O)O1	–	–	human	20 mg multiple doses, fasted	–	subjects with drug-related dizziness	0%
C[C@@H](O)[C@H](NC(=O)[C@@H]1CSSC[C@H](NC(=O)[C@@H](Cc2ccccc2)NC(=O)CN2CCN(CC(=O)[O-])CCN(CC(=O)[O-])CCN(CC(=O)[O-])CC2)C(=O)N[C@@H](Cc2ccc(O)cc2)C(=O)N[C@H](Cc2c[nH]c3ccccc23)C(=O)N[C@@H](CCCCN)C(=O)N[C@@H]([C@@H](C)O)C(=O)N1)C(=O)O.[177Lu+3]	MEC1 treated with 200 µM zebularine	gamma counter	serum-free RPMI	120 min, 37 °C	–	uptake	1.05%
C[C@@H](NC(=O)N1C(=O)[C@H](Cc2ccnc(N)c2)[C@H]1C(=O)O)C1CCCCC1	–	–	healthy Chinese adult volunteers	continuous intravenous infusion, dose not given, 5.0 days, all doses pooled	–	subjects with mild AEs	50%
CCN1[C@@H](C(=O)NC23CCC(C(=O)O)(CC2)CC3)[C@H](c2cccc(Cl)c2F)[C@]2(C(=O)Nc3cc(Cl)ccc32)C12CCCCC2	–	–	patients with advanced solid tumours	oral, 150 mg	–	grade ≥3 vomiting incidence	12.5%
CC(=O)c1c([O-])cc(C)oc1=O.[Na+]	–	–	Wistar rat, female, serum	oral, 200 mg/kg, no CYP inhibitor	–	clearance	0.05 ± 0.003 L/h/kg
O=C(O)C(O)(c1cccs1)c1cccs1	–	refers to: metabolite	human, plasma	oral, 2 mg once daily, 5 days, median	–	dose-normalised free Cmax	0.0115 (ng/mL)/mg
CC[C@H](C)[C@@H]1NC(=O)[C@@H]2CCCN2C(=O)[C@H](CC(C)C)NC(=O)[C@H](CC(C)C)NC(=O)CNC(=O)[C@@H](NC(=O)[C@@H](NC(=O)[C@H](CC(=O)O)NC(=O)CNC(=O)[C@@H](NC(=O)[C@H](C)NC(=O)CNC(=O)[C@H](CCCCN)NC(=O)[C@H](CC(C)C)NC(=O)[C@H](CC(C)C)NC(=O)[C@H](CCCCN)NC(=O)CNC(=O)[C@@H](NC(=O)[C@@H](N)CC(C)C)C(C)C)C(C)C)C(C)C)CSSC[C@@H](C(=O)O)NC1=O	–	RNA-seq, refers to: Casp3	mouse, traumatic brain injury model, frontal cortex and hippocampus	dose not given	reference: TBI alone	log2 fold change	0.775
O=C(O)C[C@H](NC(=O)[C@H](CC(=O)O)NC(=O)[C@H](CC(=O)O)NC(=O)[C@H](CC(=O)O)NC(=O)[C@H](CC(=O)O)NC(=O)[C@H](CC(=O)O)NC(=O)[C@H](CC(=O)O)NC(=O)[C@H](CC(=O)O)NC(=O)[C@H](CC(=O)O)NC(=O)[C@H](CC(=O)O)NC(=O)[C@H](CC(=O)O)NC(=O)[C@H](CCCCNC(=O)c1ccc(C(=O)NCCOCCOB2BBBBBB3BBBB3B2)cc1)NC(=O)CN1CCN(CC(=O)O)CCN(CC(=O)O)CCN(CC(=O)O)CC1)C(=O)O [gallium-67 labelled]	–	gamma counting	ddY mouse, male, 6 weeks old, lung	intravenous, 37 kBq, 10 min	–	tissue uptake	2.83 %ID/g
CC(C)C[C@@H]1NC(=O)[C@H](CC(C)C)NC(=O)[C@H](Cc2c[nH]c3ccccc23)NC(=O)[C@H](CO)NC(=O)[C@H](Cc2c[nH]c3ccccc23)NC(=O)[C@@H]2CCCN2C(=O)[C@H](CC(C)C)NC(=O)[C@H](Cc2c[nH]cn2)NC(=O)[C@@H]2CCCN2C(=O)[C@H](CC(N)=O)NC(=O)[C@H](C)NC(=O)[C@H](Cc2ccc(O)cc2)NC(=O)[C@H](CS)NC(=O)[C@H](CCCCNC(=O)CN2CCN(CC(=O)O)CCN(CC(=O)O)CCN(CC(=O)O)CC2)NC1=O [lutetium-177 labelled]	–	OLINDA dosimetry	BALB/c mice, kidney	37 MBq, 7 days	–	total nuclear transformations	2880 MBq-s
COc1c(CCC[P+](c2ccccc2)(c2ccccc2)c2ccccc2)cc2c(c1OC)OCO2.[I-]	OVCAR-3	SRB	–	–	–	TGI	-4.74 log M
C[C@@H](O)[C@@H](CO)NC(=O)[C@@H](CCCNC(=N)N)NC(=O)[C@@H]1CCCN1C(=O)[C@@H]1CSSC[C@H](NC(=O)[C@H](Cc2ccccc2)NC(=O)CN2CCN(CC(=O)O)CCN(CC(=O)O)CCN(CC(=O)O)CC2)C(=O)N[C@@H](Cc2ccc(O)cc2)C(=O)N[C@@H](Cc2ccccc2)C(=O)N[C@@H](CCC(N)=O)C(=O)N[C@@H](CC(N)=O)C(=O)N1 [gallium-68 labelled]	–	–	Wistar rat, healthy, Lacrimal gland	intravenous, 8 MBq, 30 min, mean	–	tissue uptake	0.15 %ID/g
CCC[C@@](N)(CO)CCc1ccc(OCCCCCC(C)C)cc1	–	–	dog, male hounds, plasma	oral capsule, 2.5 mg/kg, median	–	half-life	12.8 h
C[C@H]1CN(c2n[nH]c3nc(N[C@H]4CC[C@H](NS(=O)(=O)CCC(F)(F)F)CC4)ncc23)CCO1	Large ribosomal subunit protein uL5 (Homo sapiens, UniProt P62913)	Kinobeads competition, refers to: RPL11	–	0.032 µM, unit not given	reference: vehicle	remaining binding	1.08
COc1ncccc1-c1cnn2ccc(N3CCN(C(=O)OC(C)C)CC3)nc12	–	–	rat, CCI cold allodynia model, plasma	oral, 1 mg/kg, 240 min	–	free drug concentration	2.6 nM
